Assay results gathered from unrelated publications.
Numbered parts are unrelated; each lists some results of a single study.

Set 1 — method: RNA Bind-n-Seq; form: RNA; medium: in vitro; concentration: not given; baseline: input RNA pool; direction: higher = stronger binding; endpoint: bound/input enrichment
Target: RING finger protein unkempt homolog, zinc fingers 1-6, GST-SBP tag (UNK, Homo sapiens, UniProt Q9C0B0, residues 30-357)
Chain of UniProt Q9C0B0 (30-357, looked up): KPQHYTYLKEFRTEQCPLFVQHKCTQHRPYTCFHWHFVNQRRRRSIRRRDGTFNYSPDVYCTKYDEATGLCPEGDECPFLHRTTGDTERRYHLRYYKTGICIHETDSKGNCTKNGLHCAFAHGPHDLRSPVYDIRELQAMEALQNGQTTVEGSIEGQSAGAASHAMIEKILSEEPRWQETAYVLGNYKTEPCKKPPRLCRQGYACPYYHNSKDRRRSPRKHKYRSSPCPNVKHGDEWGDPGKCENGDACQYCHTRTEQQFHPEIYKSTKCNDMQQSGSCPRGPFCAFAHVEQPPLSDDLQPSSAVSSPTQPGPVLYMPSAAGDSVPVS
Notes: RNA with constant flanks, human and mouse sites, ends assumed
All sequences stand within: GGGAGUUCUACAGUCCGACGAUC … CAACAGAGGAUUGAGCAUCA
Strand = GGCGCAGCUGCCCUUGUGCCCGAGGCCCAGGACAGCCAGGUCACCAGCACCAAGAGUAAGUCCUCAGCCGAGGUCAAGGUCACCAUUAAGAGGACUCUGGUGGGGCCCCGGGGGAGCAGC; value = 0.667 ratio
Strand = UUAGAAUGUUACUUAGACCAAGUUUAGCUUUUAGAGUCCAGGUCUGGUUAAUUGCCAGGGUAGCAAAGAAUUGCAUGCACCAAUAUAAACAGGAGUCAAAAAUGCAUUAUUAAUCGAAGA; value = 1.24 ratio
Strand = GUAGCUAAGUUUCUUGAUGCUUCUGGAGCAAAACUUGACUACCGCCGCUAUGCAGAAACACUCUUUGACAUUCUGGUGGCUGGCGGAAUGCUGGCCCCGGGUGGUACACUGGCAGAUGAC; value = 0.178 ratio
Strand = ACCGUAGAGUUUGCAGAUGAAGUACGAUUGUCCUUCAUUUGUACUGAAGUAGAUUGCAAAGUGGUUCAUGAAUUCAUUGGUGGCUACAUAUUUCUCUCAACACGUGCAAAAGACCAAAAC; value = 0.679 ratio
Strand = UAUAUCACCAAUGUCCUACAAAAUCCUGACUUGGCUCUGAGAAUGGCUGUGCGGAACAACUUAGCUGGUGCUGAAGAACUCUUUGCCCGGAAAUUUAAUGCUCUCUUCGCCCAGGGAAAC; value = 0.407 ratio
Strand = GUAGCAGAUGAGCUGCAGAAAAUGCUUCUGGUAGAUGAAUUGAGAGAUGCAGUGCUGCUACUUUUUGCAAACAAACAGGAUUUGCCAAAUGCUAUGGCCAUCAGUGAAAUGACAGAUAAA; value = 0.299 ratio
Strand = AAGCUCUUCAGAGAAGUAAGAAUAAUGAAGAUUUUAAAUCAUCCCAAUAUAGUGAAGUUAUUCGAAGUCAUUGAAACUGAAAAAACACUCUACCUAAUCAUGGAAUAUGCAAGUGGAGGU; value = 1.24 ratio
Strand = CAAGUACCUUAUAAAUAUGACUUAUAUGAAAAAACUUUGAAAUAUAAUUCAGACUUGCUUAAUAGUAAUAGAAGCUAUGCAGGAAAGCAGACUGAUGAGUGUAAUGAAUUUGGAAAAGCA; value = 0.578 ratio
Strand = GCUGCCCAGAAGGCAAAGCCAGUAGCUACUACUCCUAUUCCUGGUACUCCAUGGUGUGUUGUUUGGACUGGUGAUGAGAGGGUCUUCUUUUACAAUCCCACCACCCGCCUUUCUAUGUGG; value = 0.11 ratio
Strand = UCAACAUUAGGUUAUAGUGACACUGUGAGCUUUGCUAUGGAAGUGAGUCCUUGGAGUUGUCUUCAGAAGCAAGCAGCAUGGGGGCGGAGUGUGGUUGACUUUUUUCUGGUGAUAACACAG; value = 0.453 ratio
Strand = GCAGGCUACUUUUUGGAACAUCUGGCUUUCAAGGGAACAAAGAAUCGGCCUGGCAAUGCCUUAGAGAAGGAGGUAGAGAGUAUUGGGGCUCAUCUUAAUGCCUACAGCACUCGAGAGCAC; value = 0.303 ratio

Set 2 — method: RNA Bind-n-Seq; form: RNA; medium: in vitro; concentration: 200 nM; notes: whole 134-nt RNA, ends assumed; added: 150 mM LiCl; baseline: input library; direction: higher = stronger binding; endpoint: log2 enrichment; all molecules: 7-deaza-guanosine replaces G
Target: Ras GTPase-activating protein-binding protein 1, full length (G3BP1, Homo sapiens, UniProt Q13283)
Chain of UniProt Q13283 (whole entry, looked up): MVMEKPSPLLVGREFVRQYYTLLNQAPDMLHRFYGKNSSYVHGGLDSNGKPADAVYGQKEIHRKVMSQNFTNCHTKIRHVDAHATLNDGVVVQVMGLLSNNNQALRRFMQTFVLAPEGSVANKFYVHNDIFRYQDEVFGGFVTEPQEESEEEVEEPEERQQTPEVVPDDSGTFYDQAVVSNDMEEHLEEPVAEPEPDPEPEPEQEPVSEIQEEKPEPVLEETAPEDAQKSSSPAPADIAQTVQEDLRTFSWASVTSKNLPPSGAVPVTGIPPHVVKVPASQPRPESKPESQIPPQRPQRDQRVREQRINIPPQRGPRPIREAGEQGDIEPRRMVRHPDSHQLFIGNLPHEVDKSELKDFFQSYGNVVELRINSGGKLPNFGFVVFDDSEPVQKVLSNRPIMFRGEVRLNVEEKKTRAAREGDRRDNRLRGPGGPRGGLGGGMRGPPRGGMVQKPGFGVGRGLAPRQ
All sequences stand within: GGGAGUUCUACAGUCCGACGAUC … UGGAAUUCUCGGGUGUCAAGG
Strand = UCAAGUCCUGUGCUACACAUCGUAUGUACCGAAUCGGGGUUUGGUUUGGGUUUGGAAAGUAUUAUGUUACGCCGUUCGGAUCUGCACUUC; value = -0.461
Strand = CACAGACAACACGCUCCCACACAGACACAGAGGGAAGGGGUUGGGAUGGGGACAGGGUGCACAGCAGGGCGGGGUAGGACCCCAGCCCCU; value = 0.78
Strand = UGGGAGAUGGAUUUUGUUUAUUUUUUUAGCUCAUUUCCAGGGGUGGGAAUUUUUUUUUAAUAUGUGUCAUGAAUAAAGUUGUUUUUGAAA; value = -0.224
Strand = GUCCUGUGCUACACAUCGUAUGUACCGAAUCGGGAAAGGGAAAAAAAGGGAAAAAGGGAAAGUAUUAUGUUACGCCGUUCGGAUCUGCAC; value = -0.0185
Strand = GUCCUGUGCUACACAUCGUAUGUACCGAAUCGGGCCCCCGGCCCCCGGGGCCCCCGGGGAAAGUAUUAUGUUACGCCGUUCGGAUCUGCA; value = -1.44
Strand = UGGAGCACAGGGCGAGCUCUCCUCCGCCCUGCAGCCUCAGGUAAGGAUCCGGACCUUCACUGCUGCCCCAACUGGGGCUCCUCAGCUCGG; value = 0.235
Strand = CCUGUGCUACACAUCGUAUGUACCGAAUCGGGGUUUUUUUGGGGAAAGGGGUUUUUGGGGAAAGUAUUAUGUUACGCCGUUCGGAUCUGC; value = -0.00197
Strand = UCAAGUCCUGUGCUACACAUCGUAUGUACCGAAUCGGAAAAAAAGGAGGAAAGGAAAGUAUUAUGUUACGCCGUUCGGAUCUGCACUUCC; value = -0.369
Strand = GCAGGAAGUAAAAACAAAUGGAAAUGCUUCGGAUAGUGGCAGGGGUGGGGGUUGCUAAGGAAAGGGUGGGAUGGGAGAAAGUAAAGAGUU; value = -0.0835
Strand = UGGAAGCUCAUACGACUGUGAAAGAAGCUGAGGAUGACAACAUCUCGGUCACAAUCCAGGCUGAAGAUGCCAUCACUCUGGAUUUUGAUG; value = -2.07
Strand = AGUCCUGUGCUACACAUCGUAUGUACCGAAUCGGGGAAAAAGGGGUUUGGGGUGGGGAAAGUAUUAUGUUACGCCGUUCGGAUCUGCACU; value = -0.681

Set 3 — method: protein binding microarray; form: double-stranded DNA, one strand shown; medium: in vitro; concentration: not given; baseline: not given; direction: higher = stronger binding; endpoint: E-score
Target: Histone acetyltransferase KAT6A, winged helix 2, GST fusion (KAT6A, Homo sapiens, UniProt Q92794, residues 85-181)
Notes: 8-mer, flanks averaged, mean of 2 arrays, mostly near background
Construct (chain): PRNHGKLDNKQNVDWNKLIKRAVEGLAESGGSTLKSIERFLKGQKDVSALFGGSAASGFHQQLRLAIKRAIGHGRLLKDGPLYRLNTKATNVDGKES
Strand = AGGGCTCG; value = 0.0922
Strand = CAGCAATC; value = 0.109
Strand = GATAATAC; value = 0.13
Strand = CGAACTCC; value = 0.139
Strand = CATGCTTA; value = -0.0208
Strand = AGGAGTCC; value = -0.11
Strand = ACCGTCGA; value = -0.126
Strand = CGCATCCC; value = -0.0492
Strand = AATGGAGA; value = -0.0633
Strand = ACTGATCC; value = -0.077
Strand = AGCCGAAA; value = 0.08
Strand = GCGCCCGC; value = 0.267
Strand = AGGCAACT; value = 0.179
Strand = ACTGATCG; value = -0.113
Strand = CCTATGCC; value = -0.175
Strand = AGTCCCAG; value = 0.011
Strand = CACCAGTC; value = -0.18
Strand = TCGTGGCA; value = 0.0532
Strand = ACCCAGAG; value = -0.0211
Strand = AAGTTACA; value = -0.0713
Strand = CTCCAGCC; value = 0.0767

Set 4 — method: RNA Bind-n-Seq; form: RNA; medium: in vitro; concentration: 365 nM; baseline: no-protein control; direction: higher = stronger binding; endpoint: RBNS enrichment (R)
Target: RNA binding protein fox-1 homolog 2, RRM domain, GST-SBP tag (RBFOX2, Homo sapiens, UniProt O43251-10, residues 100-194)
Notes: natural RNA segment, single round, ends assumed
All sequences stand within: GGGAGUUCUACAGUCCGACGAUC … UGGAAUUCUCGGGUGCCAA
Target sequence (chain): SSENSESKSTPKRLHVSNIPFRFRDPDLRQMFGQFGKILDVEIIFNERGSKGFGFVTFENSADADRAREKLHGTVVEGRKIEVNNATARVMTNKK
Strand = GAAGAUAUUUAAUAUAUGAAACUCUCAUAACUGUCAUUAACAGUAUUAAUUAGGUCUAAAUACCGUGGAGCAGCCCUGAUAUCAUGCUGACAGCUUACGUGUCAGAGGGC; value = 0.468
Strand = CAGACAGCCGCCUCUAGGGGCUGGGUUCUGCUGGGGCCUCCUUGUUGGUGCUGUAGGCACCCGCCAGGGAGCAGGGACCCGACUUGCAGACGCAUUGCCCGGUACUAGGA; value = 0.26
Strand = GGUGGCCACUCAGUGAGGAGGCUCUCUGGGGUCCAGUGUUUGGAAGAGGAGGAAAGGGGACCAAAGGGAAGUGAGGUCCUAGAGCGUUGACACUGAGGGAAGUCCUAUCU; value = 0.505
Strand = AAGGCAGGAAUUUGAGAGUUCACAGAAGGAUCGUGUCUGCUGACUGUUUCAUUCACUGUGCACUUUGCUCAAAAUUUUAAAAAUACCAAUCACAAGGAUAAUAGAGUAGC; value = 0.378
Strand = UGUUUUUCCUCUCCUUUUGAGAAUUUUCUUUUGUAAAAGAAAAAUAUUUUUUAAACCGAAAUCUGUGGAUGAAAUAGAAGCUGGAGCCCUCCUCUUGGAAUAUUCAGCCU; value = 0.398
Strand = UAGAUAAAAUAAUCUUUAUUAUAAUGACCAGUUUUGUGCCACAUUGUUGGUGGCGAUCGACCAGAUGUGUUCGUCUGCACAGCCGCGAGGCAACACUGUUCCGUUUGCAC; value = 0.395
Strand = UAAUCCAAACUCUAUGAAAGCAAUUUUAAAAAUUAUUAAGGUUUUAUGAAGUUGACAAAAUCUAACUAUAUUUGGUGCAUCACAAUGGACACAGAAUGCUGCUGCUCCUC; value = 0.4
Strand = ACAGAGGCACAAGAUGAUGCAGGGCUAUAAAGCCCUCCCUGGAGCUUUCAGGAGGGCCAGUUCCAAUCCUGAUCACAGCCUGCAUGGAUUUCCACUUGCCUGGUGCUUGC; value = 0.809
Strand = AACGUUUCUGGUUUAGAGAAUACUCAGCCAUCCUGGAAACUAGCAAUAUUUAUUUUGCCUCAUUUACUUUAUUUUCAGUUUUAGAUGAGGUGAAGGUUUUCUUUCAGUUA; value = 0.491
Strand = AGUAAAGUGCAAUUUCAUUGGAUAGCUAAAUAUCUUUGUAAGAUAGAGAUUGUUGAAAAUUCUAUUUUUGUUUUUCUAGUCCUUUCACCCCAGGACUCUAAAUUAUUGGG; value = 1.36
Strand = UGCCAGCUGGCUGAUCUAAGCUCCUGAGGAAUGUCUCCUCUCAAAGGAAUUUUUCCCUCCAAAGGCCCCCUGAAGUCCUAGUUGGCAUUGGCCUGGCACAUGCUUUAUGU; value = 0.219
Strand = AAUCUGUAAAUGAUGGCUUGAUGUACAGAAAAUGUAUUUUUGCUUAAAAGAUGCCUGGGUACCUUUUAUUUUAUGGCAUUUGUAUUAAAAAUAAAGUAUGAUGGUAAGAA; value = 0.679

Set 5 — method: universal PBM; form: double-stranded DNA, one strand shown; medium: in vitro; concentration: 600 nM; direction: higher = stronger binding; endpoint: E-score
Target: Sal-like protein 4, full length isoform A (SALL4, Homo sapiens, UniProt Q9UJQ4, residues 1-1053)
Chain of UniProt Q9UJQ4 (whole entry, looked up): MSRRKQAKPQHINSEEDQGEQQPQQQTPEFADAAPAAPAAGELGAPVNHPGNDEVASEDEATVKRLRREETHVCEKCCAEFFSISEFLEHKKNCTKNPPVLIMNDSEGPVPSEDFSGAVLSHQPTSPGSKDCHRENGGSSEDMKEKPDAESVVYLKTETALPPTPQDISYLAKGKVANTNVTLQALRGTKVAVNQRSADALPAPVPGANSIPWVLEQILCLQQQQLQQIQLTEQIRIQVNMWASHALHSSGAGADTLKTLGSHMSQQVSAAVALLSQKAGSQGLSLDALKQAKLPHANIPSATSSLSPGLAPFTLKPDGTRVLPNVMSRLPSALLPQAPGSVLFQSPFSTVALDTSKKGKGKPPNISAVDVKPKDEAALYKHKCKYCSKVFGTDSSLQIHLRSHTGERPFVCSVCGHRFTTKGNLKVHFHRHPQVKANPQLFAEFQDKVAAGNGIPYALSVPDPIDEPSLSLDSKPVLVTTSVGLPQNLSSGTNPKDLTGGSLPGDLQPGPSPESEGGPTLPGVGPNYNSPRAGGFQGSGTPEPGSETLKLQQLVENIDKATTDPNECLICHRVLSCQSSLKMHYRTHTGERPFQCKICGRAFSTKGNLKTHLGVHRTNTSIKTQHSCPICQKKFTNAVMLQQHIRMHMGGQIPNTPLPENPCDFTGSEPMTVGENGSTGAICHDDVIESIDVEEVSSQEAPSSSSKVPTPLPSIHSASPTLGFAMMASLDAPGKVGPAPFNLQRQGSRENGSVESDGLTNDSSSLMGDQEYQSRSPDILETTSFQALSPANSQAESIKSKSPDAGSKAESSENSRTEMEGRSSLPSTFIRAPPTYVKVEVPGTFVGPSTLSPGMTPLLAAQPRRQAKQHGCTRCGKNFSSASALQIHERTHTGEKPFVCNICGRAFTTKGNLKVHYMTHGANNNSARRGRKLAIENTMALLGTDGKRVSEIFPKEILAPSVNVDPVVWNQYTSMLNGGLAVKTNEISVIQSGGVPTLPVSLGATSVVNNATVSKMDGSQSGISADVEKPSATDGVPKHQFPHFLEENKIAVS
Notes: 8-mer, flanks averaged, mean of replicates
Strand = CAATCTCC; value = -0.0274
Strand = GCTAGCAC; value = -0.227
Strand = GACTAACC; value = -0.191
Strand = CTGTACAA; value = 0.116
Strand = TAGGGAGA; value = 0.0185
Strand = ATTAGGCC; value = -0.00908
Strand = ACTCCTCA; value = 0.0726
Strand = ACTGAATC; value = 0.0196
Strand = AACTGCGT; value = -0.00426
Strand = GTACTAGA; value = 0.0835
Strand = AGAGTTTG; value = 0.105
Strand = AAAGTCAA; value = 0.0882
Strand = ACCTTAAA; value = 0.00411
Strand = AAGAGTTG; value = 0.0312
Strand = ACGTCAGA; value = -0.0374
Strand = AGGTACTG; value = -0.0616
Strand = AACTGATC; value = -0.115

Repeated from above (set 5):
Strand = GCTAGCAC; value = -0.227
Strand = CAATCTCC; value = -0.0274
Strand = ACGTCAGA; value = -0.0374
Strand = ACTGAATC; value = 0.0196
